{"data": "Published values from different studies", "note": "A part holds a random share of what one study measured."}
{"data": "Set 1", "target": "RNA binding protein fox-1 homolog 2, RRM domain, GST-SBP tag (RBFOX2, Homo sapiens, UniProt O43251-10, residues 100-194)", "technique": "RNA Bind-n-Seq", "form": "RNA", "medium": "in vitro", "tested at": "365 nM", "notes": "natural RNA segment, single round, ends assumed", "reference": "no-protein control", "reading": "higher = stronger binding", "all sequences stand within": "GGGAGUUCUACAGUCCGACGAUC … UGGAAUUCUCGGGUGCCAA"}
{"Oligonucleotide": "CUGUAUGAAACAAAAACAAAACCUGAUAUAUGCAAUAUCUGUCUGUCUGUCUGUACCCAUGGGCCUGGCUCAGCCAUUGGAGGCCCAGCCGAGGGUCCGGCAGGGCACAG", "RBNS enrichment (R)": 0.443}
{"Oligonucleotide": "UCUGUCUUGUUUUUCACUUAUAUAACACUGUGAACUUCUAAAGCAAGAGGAUAAAAGAAGCAUGAAUGAAAAGAAUGACAUUUCAAAAAAAUGGUUCAAUGAAAAACUAU", "RBNS enrichment (R)": 7.56}
{"Oligonucleotide": "GCGUCUCUGCUGUGUUGCGCAGUGCAGUGGGGUGCAAGGGCUUUGUUUCUGCCUGCCUGAAAGAGAGGGCUCUGGGGAUGGAGAUGAGAAACAACACGCUCUCCUUCAGA", "RBNS enrichment (R)": 0.891}
{"Oligonucleotide": "CGCCUCUUUUAUUAUUUUGACUGAAUGUUUUAUGGAAUUGAAAGAAACAUACGUUCUUUUCAAGACUUCCUCAUGAAUCUCUCAAUUAUAGGAAAAGUUAUUGUGAUAAA", "RBNS enrichment (R)": 0.422}
{"Oligonucleotide": "UAUUUAAAACAAAAAACAAAACUACAAUGAAACUUGGGAGUCCUUUUCAUGUAGAGGAAGGUUAUCCUGUAGCAUAAUGUAUGCACACGGUCAUCUAGUACCUGAUUGGA", "RBNS enrichment (R)": 0.787}
{"data": "Set 2", "target": "Histone acetyltransferase KAT6A, winged helix 1, GST fusion (KAT6A, Homo sapiens, UniProt Q92794, residues 1-85)", "technique": "protein binding microarray", "form": "double-stranded DNA, one strand shown", "medium": "in vitro", "tested at": "not given", "notes": "8-mer, flanks averaged, mean of 2 arrays, mostly near background", "reference": "not given", "reading": "higher = stronger binding", "Target sequence (chain)": "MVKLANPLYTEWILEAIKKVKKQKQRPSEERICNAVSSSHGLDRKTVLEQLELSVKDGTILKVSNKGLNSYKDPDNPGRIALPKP"}
{"Oligonucleotide": "CCATAAAG", "E-score": -0.217}
{"Oligonucleotide": "AACTTAAT", "E-score": -0.136}
{"Oligonucleotide": "CCAAAGAG", "E-score": -0.219}
{"Oligonucleotide": "ACACACCA", "E-score": -0.324}
{"Oligonucleotide": "ATGTTATG", "E-score": -0.143}
{"data": "Set 3", "target": "Sal-like protein 4, full length isoform A (SALL4, Homo sapiens, UniProt Q9UJQ4, residues 1-1053)", "technique": "universal PBM", "form": "double-stranded DNA, one strand shown", "medium": "in vitro", "tested at": "600 nM", "notes": "8-mer, flanks averaged, mean of replicates", "reading": "higher = stronger binding", "sequence of UniProt Q9UJQ4 (whole entry, looked up)": "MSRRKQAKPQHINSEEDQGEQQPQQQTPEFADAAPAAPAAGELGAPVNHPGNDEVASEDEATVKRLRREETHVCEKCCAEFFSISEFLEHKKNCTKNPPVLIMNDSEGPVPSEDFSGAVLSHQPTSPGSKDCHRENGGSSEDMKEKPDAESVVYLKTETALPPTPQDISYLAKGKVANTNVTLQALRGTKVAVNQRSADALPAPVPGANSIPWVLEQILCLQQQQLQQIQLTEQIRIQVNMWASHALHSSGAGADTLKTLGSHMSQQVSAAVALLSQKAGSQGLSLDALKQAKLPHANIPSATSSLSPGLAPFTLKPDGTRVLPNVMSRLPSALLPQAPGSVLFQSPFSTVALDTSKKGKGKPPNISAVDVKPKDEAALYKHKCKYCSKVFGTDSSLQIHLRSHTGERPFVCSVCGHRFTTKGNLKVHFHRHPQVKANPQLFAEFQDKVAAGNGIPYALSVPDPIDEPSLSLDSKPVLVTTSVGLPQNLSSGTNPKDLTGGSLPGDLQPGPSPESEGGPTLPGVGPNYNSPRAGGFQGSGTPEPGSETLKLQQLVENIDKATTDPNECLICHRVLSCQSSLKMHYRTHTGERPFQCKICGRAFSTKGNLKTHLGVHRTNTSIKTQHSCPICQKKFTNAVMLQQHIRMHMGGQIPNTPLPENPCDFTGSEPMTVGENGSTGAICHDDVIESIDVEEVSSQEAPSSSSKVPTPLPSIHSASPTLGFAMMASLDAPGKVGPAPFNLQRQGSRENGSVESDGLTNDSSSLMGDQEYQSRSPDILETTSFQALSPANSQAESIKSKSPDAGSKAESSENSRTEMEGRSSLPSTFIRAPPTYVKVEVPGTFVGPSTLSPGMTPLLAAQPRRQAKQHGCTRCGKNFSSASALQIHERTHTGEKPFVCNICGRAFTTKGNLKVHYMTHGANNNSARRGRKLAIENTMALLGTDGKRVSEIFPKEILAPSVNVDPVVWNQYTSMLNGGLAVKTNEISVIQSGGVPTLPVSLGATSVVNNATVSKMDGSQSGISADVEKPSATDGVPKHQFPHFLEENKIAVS"}
{"Oligonucleotide": "GGTGTTTA", "E-score": -0.0184}
{"Oligonucleotide": "ATGCTTCA", "E-score": 0.143}
{"Oligonucleotide": "ACGAGCGG", "E-score": -0.229}
{"Oligonucleotide": "ACCGACTA", "E-score": -0.173}
{"Oligonucleotide": "CTTTGGAA", "E-score": 0.162}
{"Oligonucleotide": "CGAAAAAG", "E-score": 0.00352}
{"Oligonucleotide": "GTCCGCTA", "E-score": -0.122}
{"data": "Mixed results"}
{"Substance": "PhoQ, residues 284 288 289 292 302 303 SIHMAM", "target": "PhoP, residues 12 14 15 18 19 NIMAP (Escherichia coli, UniProt P23836)", "assay": "Sort-seq, item: YFP reporter", "test system": "E. coli", "setting": "PhoQ-PhoP variant library, together with: 10 µM Mg2+", "scale": "reference: high Mg2+ state, higher = stronger signaling", "measurement": "fold induction", "value": 0.67}
